Published values gathered from unrelated publications.
Each line is one published result; not all experiments were run side by side. Values joined by “and” are separate records of one study, mostly repeats; a detail may differ. ± gives the spread as reported.
UCHL1: Ubiquitin carboxyl-terminal hydrolase isozyme L1 (UCHL1, Homo sapiens, UniProt P09936)
Chain of UniProt P09936 (whole entry, looked up): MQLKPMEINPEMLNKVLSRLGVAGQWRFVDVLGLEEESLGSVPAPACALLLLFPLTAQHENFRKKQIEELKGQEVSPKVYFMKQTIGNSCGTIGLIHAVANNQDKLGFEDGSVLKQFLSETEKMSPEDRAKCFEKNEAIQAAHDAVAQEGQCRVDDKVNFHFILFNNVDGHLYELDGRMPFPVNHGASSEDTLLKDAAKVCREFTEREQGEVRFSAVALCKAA
7-alpha-hydroxycholest-4-en-3-one 12-alpha-hydroxylase: 7-alpha-hydroxycholest-4-en-3-one 12-alpha-hydroxylase (Homo sapiens, UniProt Q9UNU6)
Chain of UniProt Q9UNU6 (whole entry, looked up): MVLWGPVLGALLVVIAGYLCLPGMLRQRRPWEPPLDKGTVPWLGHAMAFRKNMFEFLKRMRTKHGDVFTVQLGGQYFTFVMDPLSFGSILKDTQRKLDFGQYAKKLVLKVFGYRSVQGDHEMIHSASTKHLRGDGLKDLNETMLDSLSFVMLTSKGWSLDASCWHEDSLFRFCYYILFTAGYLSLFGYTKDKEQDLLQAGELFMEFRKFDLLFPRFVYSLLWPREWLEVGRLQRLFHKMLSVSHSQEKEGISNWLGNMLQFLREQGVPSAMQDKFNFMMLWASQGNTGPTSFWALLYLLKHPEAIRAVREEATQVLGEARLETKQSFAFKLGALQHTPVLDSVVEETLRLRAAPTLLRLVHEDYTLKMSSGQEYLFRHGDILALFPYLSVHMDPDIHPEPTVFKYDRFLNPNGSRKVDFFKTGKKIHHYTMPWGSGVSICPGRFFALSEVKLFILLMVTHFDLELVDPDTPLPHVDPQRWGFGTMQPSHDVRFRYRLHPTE
ALDH2: Aldehyde dehydrogenase, mitochondrial (ALDH2, Homo sapiens, UniProt P05091)
Chain of UniProt P05091 (whole entry, looked up): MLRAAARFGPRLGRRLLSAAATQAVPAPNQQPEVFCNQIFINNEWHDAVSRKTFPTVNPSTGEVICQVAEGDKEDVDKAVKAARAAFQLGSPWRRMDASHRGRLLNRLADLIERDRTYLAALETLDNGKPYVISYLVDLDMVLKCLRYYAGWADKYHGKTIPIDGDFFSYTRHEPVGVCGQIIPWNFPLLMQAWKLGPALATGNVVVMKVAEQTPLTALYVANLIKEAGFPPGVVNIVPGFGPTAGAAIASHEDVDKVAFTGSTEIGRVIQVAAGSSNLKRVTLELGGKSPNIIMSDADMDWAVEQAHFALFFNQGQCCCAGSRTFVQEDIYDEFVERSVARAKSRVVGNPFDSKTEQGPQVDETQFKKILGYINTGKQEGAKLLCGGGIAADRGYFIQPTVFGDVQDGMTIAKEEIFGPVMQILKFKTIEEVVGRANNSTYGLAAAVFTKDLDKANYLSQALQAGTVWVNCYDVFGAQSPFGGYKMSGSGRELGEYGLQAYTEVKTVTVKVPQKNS
GSK3B: Glycogen synthase kinase-3 beta (GSK3B, Homo sapiens, UniProt P49841)
Chain of UniProt P49841 (whole entry, looked up): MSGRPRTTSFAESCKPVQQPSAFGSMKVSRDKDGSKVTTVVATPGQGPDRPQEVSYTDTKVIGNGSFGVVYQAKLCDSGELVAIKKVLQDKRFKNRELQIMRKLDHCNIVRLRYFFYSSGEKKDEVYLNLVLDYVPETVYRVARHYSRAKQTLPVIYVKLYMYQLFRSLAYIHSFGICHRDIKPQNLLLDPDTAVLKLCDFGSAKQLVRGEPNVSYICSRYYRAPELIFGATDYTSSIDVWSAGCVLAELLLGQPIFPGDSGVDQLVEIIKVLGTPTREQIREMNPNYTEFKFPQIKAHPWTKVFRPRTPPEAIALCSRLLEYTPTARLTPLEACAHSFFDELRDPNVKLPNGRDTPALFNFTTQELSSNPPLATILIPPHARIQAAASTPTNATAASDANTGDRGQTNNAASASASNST
BMI1/RNF2: BMI1/RNF2 (Homo sapiens, UniProt P35226+Q99496)
Chain of UniProt Q99496 (whole entry, looked up): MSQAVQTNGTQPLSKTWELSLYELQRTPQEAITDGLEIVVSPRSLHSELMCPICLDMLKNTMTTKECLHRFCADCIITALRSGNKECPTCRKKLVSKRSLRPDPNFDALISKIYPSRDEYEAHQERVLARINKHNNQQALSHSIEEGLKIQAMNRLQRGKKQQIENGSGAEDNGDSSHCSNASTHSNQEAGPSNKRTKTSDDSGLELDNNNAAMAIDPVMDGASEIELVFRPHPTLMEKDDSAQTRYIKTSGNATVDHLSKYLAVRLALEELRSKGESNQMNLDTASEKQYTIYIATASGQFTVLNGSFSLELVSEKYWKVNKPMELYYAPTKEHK
Chain of UniProt P35226 (whole entry, looked up): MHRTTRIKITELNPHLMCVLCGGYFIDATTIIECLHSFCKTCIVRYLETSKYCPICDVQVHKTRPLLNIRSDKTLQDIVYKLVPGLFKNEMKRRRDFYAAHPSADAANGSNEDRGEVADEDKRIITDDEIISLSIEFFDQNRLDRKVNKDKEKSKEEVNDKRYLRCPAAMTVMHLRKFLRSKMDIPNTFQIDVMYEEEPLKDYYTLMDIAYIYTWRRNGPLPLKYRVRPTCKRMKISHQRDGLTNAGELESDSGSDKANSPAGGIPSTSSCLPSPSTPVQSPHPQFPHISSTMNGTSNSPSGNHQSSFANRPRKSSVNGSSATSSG
Histone acetyltransferase RTT109 with Vps75: Histone acetyltransferase RTT109, with Vps75 (Saccharomyces cerevisiae, UniProt Q07794)
Chain of UniProt Q07794 (whole entry, looked up): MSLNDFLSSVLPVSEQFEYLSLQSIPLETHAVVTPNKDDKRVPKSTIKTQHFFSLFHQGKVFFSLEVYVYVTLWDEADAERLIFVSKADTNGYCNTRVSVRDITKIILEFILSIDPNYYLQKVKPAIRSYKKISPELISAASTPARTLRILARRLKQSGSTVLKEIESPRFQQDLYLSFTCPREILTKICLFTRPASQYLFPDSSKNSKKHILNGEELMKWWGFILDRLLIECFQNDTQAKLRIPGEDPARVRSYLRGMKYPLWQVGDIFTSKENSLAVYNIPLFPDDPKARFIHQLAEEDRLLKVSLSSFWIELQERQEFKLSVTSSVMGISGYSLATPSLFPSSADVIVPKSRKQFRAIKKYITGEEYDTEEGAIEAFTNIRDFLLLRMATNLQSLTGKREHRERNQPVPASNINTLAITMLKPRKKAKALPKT
Chain of UniProt Q93009 (whole entry, unmodified, looked up): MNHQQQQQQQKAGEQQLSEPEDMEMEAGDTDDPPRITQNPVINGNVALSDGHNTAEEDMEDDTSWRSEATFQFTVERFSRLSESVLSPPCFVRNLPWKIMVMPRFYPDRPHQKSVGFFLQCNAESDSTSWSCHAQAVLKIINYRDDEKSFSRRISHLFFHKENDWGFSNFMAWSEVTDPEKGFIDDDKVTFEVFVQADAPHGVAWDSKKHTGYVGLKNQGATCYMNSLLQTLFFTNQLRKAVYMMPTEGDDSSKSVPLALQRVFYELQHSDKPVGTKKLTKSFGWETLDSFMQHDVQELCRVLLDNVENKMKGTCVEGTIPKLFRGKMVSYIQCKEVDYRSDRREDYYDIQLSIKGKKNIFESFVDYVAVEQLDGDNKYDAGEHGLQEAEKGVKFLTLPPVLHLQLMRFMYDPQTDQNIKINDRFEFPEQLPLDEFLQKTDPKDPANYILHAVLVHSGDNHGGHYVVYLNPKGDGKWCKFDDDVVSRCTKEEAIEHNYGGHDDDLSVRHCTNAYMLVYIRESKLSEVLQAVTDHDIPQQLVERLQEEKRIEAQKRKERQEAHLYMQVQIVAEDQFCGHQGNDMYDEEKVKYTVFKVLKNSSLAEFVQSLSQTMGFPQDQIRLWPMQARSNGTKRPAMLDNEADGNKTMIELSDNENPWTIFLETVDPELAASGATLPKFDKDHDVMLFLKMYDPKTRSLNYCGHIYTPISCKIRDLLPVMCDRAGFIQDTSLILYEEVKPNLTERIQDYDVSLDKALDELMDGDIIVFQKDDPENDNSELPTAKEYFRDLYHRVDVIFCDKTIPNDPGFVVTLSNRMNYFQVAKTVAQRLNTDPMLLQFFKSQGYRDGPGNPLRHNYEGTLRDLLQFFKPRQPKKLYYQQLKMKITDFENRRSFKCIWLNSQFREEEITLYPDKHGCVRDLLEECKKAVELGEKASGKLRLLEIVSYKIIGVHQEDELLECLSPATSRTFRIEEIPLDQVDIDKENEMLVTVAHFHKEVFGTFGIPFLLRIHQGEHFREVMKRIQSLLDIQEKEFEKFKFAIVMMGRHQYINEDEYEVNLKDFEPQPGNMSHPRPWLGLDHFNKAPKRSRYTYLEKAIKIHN
Chain of UniProt Q16774 (whole entry, unmodified, looked up): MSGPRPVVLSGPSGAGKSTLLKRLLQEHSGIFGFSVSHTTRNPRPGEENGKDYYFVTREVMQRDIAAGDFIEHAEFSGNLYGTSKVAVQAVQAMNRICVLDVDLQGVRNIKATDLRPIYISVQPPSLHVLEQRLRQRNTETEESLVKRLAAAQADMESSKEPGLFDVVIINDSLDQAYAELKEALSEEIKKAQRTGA
Chain of UniProt P35222 (141-305, looked up): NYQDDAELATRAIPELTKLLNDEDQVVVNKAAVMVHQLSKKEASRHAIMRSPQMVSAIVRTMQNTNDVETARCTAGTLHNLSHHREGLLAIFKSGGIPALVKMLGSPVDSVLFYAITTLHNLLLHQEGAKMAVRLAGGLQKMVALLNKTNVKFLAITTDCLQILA
Chain of UniProt P01106 (whole entry, looked up): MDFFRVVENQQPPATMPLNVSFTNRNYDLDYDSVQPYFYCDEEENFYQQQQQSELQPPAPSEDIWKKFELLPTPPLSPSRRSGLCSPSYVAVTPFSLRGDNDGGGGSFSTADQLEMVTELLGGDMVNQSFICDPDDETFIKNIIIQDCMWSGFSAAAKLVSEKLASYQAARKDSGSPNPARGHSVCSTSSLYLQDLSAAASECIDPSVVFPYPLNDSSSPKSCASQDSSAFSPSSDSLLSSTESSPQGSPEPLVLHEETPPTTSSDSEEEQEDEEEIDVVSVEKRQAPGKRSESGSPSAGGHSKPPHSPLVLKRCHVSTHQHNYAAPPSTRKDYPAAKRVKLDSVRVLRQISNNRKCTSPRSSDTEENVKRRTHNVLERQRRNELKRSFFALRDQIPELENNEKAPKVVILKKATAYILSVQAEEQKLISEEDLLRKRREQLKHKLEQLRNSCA
Chain of UniProt P61823 (whole entry, looked up): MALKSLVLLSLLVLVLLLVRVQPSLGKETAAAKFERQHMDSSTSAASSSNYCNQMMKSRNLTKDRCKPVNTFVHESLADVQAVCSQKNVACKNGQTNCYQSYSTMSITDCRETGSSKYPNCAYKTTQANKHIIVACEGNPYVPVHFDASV

`N#CC(=Cc1ccc(F)cc1)C(=O)Nc1ccc(C(=O)O)cc1` gave a labelling of 34.7% (UCHL1; covalent, intact protein LC-MS; 12.5 µM).
The Kd of `OC[C@H]1O[C@@](CO)(O[C@H]2O[C@H](CO)[C@@H](O)[C@H](O)[C@H]2O)[C@@H](O)[C@@H]1O` is reported as > 300 µM (Fructooligosaccharide ABC transporter substrate-binding protein FusA (fusA, Streptococcus pneumoniae serotype 4, UniProt A0A0H2URD6); binder, isothermal titration calorimetry; 25 °C, wild type).
`O=C(Cn1ccnc1)c1ccc(Cl)cc1Cl` has a Kd of 280 µM (7-alpha-hydroxycholest-4-en-3-one 12-alpha-hydroxylase; binding; 20 min, pH 7.4).
`COc1ccc(-c2nc(N3CCOCC3)c3sc(CN(C)c4ncc(C(=O)NO)cn4)cc3n2)cn1` has a Kd of > 30.2 µM (ALDH2; inhibitor, competition pulldown; SW620 and MV4-11 lysate; 1 h).
The Kd of `O=C(O)CCCC[C@@H]1SC[C@@H]2NC(=O)N[C@@H]21` is reported as 0.0037 µM (Bifunctional ligase/repressor BirA (birA, Escherichia coli, UniProt P06709); DNA binding, DNase I footprinting; added: ATP, bio-5'-AMP).
For `O=C(C[C@@H](C(F)F)n1ccc(F)n1)N1CCC(O)(Cn2cnc3c(cnn3-c3ccc(F)cc3)c2=O)CC1`, the Kd was 0.036 ± 0.005 µM (Ubiquitin carboxyl-terminal hydrolase 7 (USP7, Homo sapiens, UniProt Q93009, V517I); isothermal titration calorimetry; USP7 V517I).
With `C=C1CCN([C@H](C)[C@](O)(Cn2cncn2)c2ccc(F)cc2F)CC1` the Kd was 38.7 µM (7-alpha-hydroxycholest-4-en-3-one 12-alpha-hydroxylase; binding; 20 min, pH 7.4).
`O=C(O)/C=C(/CC(=O)O)C(=O)O` has a Kd of 3.48 ± 0.49 µM (uncharacterized protein (Pelagibacter ubique, UniProt Q4FLC8); binding, direct isothermal titration calorimetry; Candidatus Pelagibacter ubique; added: MgSO4 53 mM).
`COc1ccc(C)cc1CN1CCC(c2cc3ncccc3cn2)CC1` has a Kd of 1.63 µM (Catenin beta-1, residues 141-305 (CTNNB1, Homo sapiens, UniProt P35222); binding, isothermal titration calorimetry; 25 °C).
For `Clc1ccc(COC(Cn2ccnc2)c2ccc(Cl)cc2Cl)c(Cl)c1` (stereo not drawn), the Kd was 0.0982 µM (7-alpha-hydroxycholest-4-en-3-one 12-alpha-hydroxylase; binding, Soret peak shift titration; 20% glycerol).
`CC[C@H](C)[C@H](NC(=O)[C@H](CC(C)C)NC(=O)[C@H](Cc1ccc(OP(=O)(O)O)cc1)NC(=O)[C@H](CCC(=O)O)NC(=O)[C@H](CC(=O)O)NC(=O)[C@H](C)NC(=O)[C@H](CC(=O)O)NC(=O)[C@@H](NC(=O)[C@@H](NC(=O)[C@H](CC(=O)O)NC(=O)[C@H](CC(=O)O)NC(=O)[C@H](CCSC)NC(=O)c1ccc2c(c1)C(=O)OC21c2ccc(N(C)C)cc2Oc2cc(N(C)C)ccc21)C(C)C)C(C)C)C(=O)N1CCC[C@H]1C(=O)N[C@@H](CCC(N)=O)C(=O)N[C@@H](CCC(N)=O)C(=O)NCC(=O)N[C@@H](Cc1ccccc1)C(=O)N[C@@H](CC(=O)O)C(=O)O` has a Kd of 0.085 µM (Guanine nucleotide exchange factor VAV2, SH2 domain (VAV2, Homo sapiens, UniProt P52735); binding).
`CCCN1CCN(c2ccc(-c3cncc(Cl)c3N3CCC4(CCNC4=O)CC3)cc2)CC1` has a Kd of 1.59 µM (GSK3B; SILAC displacement; LS174T-L5 cell lysate).
The Kd of `NCCS(=O)(=O)O` is reported as 0.0632 µM and 0.0495 µM and 0.0742 µM (uncharacterized protein (Pelagibacter ubique, UniProt Q4FMG4); isothermal titration calorimetry; Candidatus Pelagibacter ubique).
The Kd of `O=c1ccn([C@@H]2O[C@H](COP(=O)(O)OP(=O)(O)O)[C@@H](O)[C@H]2O)c(=O)[nH]1` is reported as 890 ± 10 µM (Histo-blood group ABO system transferase (ABO, Homo sapiens, UniProt P16442, G235S/G268A/L266M/R176G/W181M); methyl-TROSY NMR titration lineshape analysis; apo mutant enzyme).
With `O=C(O)CC(O)(CC(=O)O)C(=O)O` the Kd was < 0.005 µM (uncharacterized protein (Pelagibacter ubique, UniProt Q4FLC8); binding, direct isothermal titration calorimetry; Candidatus Pelagibacter ubique; added: MgSO4 53 mM).
For `C#Cc1cccc(Nc2ncnc3cc(OC)c(OCCCCCCC(=O)NO)cc23)c1`, the Kd was 21.6 µM (ALDH2; inhibitor, competition pulldown; SW620 and MV4-11 lysate; 1 h).
The Kd of `Cc1cc(-c2cccc3[nH]ccc23)[nH]c1C(=O)O` is reported as 1000 µM (BMI1/RNF2; estimated).
With `CCOC(=O)c1c(NC(=O)CNC(C)C)sc2c1CCCCC2` the Kd was ~1.23 µM (GSK3B).
`NCCS(=O)(=O)O` — result for Kd: “no binding” (Sodium- and chloride-dependent taurine transporter (SLC6A6, Homo sapiens, UniProt P31641, S402A); microscale thermophoresis; S402A mutant).
The Kd of `Cc1[nH]c2ccccc2c1-c1csc(-c2c[nH]c3ccccc23)n1` is reported as 158 µM (Bromodomain-containing protein 4, dephosphorylated (BRD4, Homo sapiens, UniProt O60885); microscale thermophoresis; Cy5-labelled protein).
For `O=C(CCCCCCNC(=O)c1cnc(N(c2ccccc2)c2ccccc2)nc1)NO`, the Kd was 0.531 µM (ALDH2; inhibitor, competition pulldown; SW620 and MV4-11 lysate; 1 h).
The Kd of `CC(C)CCC[C@@H](C)[C@H]1CC[C@H]2[C@@H]3CC=C4C[C@@H](O)CC[C@]4(C)[C@H]3CC[C@]12C` is reported as 0.393 µM (Oxysterol-binding protein-related protein 1 (OSBPL1A, Homo sapiens, UniProt Q9BXW6); binding, radioligand saturation binding).
For `O=C(/C=C/c1cccc(S(=O)(=O)Nc2ccccc2)c1)NO`, the Kd was > 30.2 µM (ALDH2; inhibitor, competition pulldown; SW620 and MV4-11 lysate; 1 h).
The Kd of `C[C@H](O)C(=O)O` is reported as 43 ± 8 µM (V20H-R359H zinc sensor protein; binding, fluorescence lifetime; no Zn2+).
Under Kd, `Oc1ccc(-c2nc(-c3ccc(OC4CCCC4)cc3)no2)cc1` is recorded as “no binding” (PdaA (Clostridioides difficile); microscale thermophoresis).
With `Cc1cc(Nc2cc3ncccc3c(N[C@@H]3C[C@H]4CC[C@@H](C3)N4CCC#N)n2)n[nH]1` the Kd was 0.023 µM (Serine/threonine-protein kinase PLK4 (PLK4, Homo sapiens, UniProt O00444); binding, KINOMEscan).
For `Nc1ncnc2c1ncn2[C@@H]1O[C@H](COP(=O)(O)OP(=O)(O)O)[C@@H](O)[C@H]1O`, the Kd was 7 ± 2 µM (Creatine kinase U-type, mitochondrial (CKMT1A, Homo sapiens, UniProt P12532, H99K); microscale thermophoresis; pH 7.0, H61K mutant, no substrate).
`Nc1ncnc2c1ncn2[C@@H]1O[C@H](CO[P@](=O)(O)O[P@](=O)(O)O[P@@](=O)(O)S)[C@@H](O)[C@H]1O` has a Kd of > 400 µM (GUK1 (Homo sapiens, UniProt Q16774, R137A); binding, ITC; 25 °C, added: GMP).
The Kd of `O=C(/C=C/c1ccc(CN(CCO)CCc2c[nH]c3ccccc23)cc1)NO` is reported as > 30.2 µM (ALDH2; inhibitor, competition pulldown; SW620 and MV4-11 lysate; 1 h).
`Cc1cnc(-c2ccc(-c3ccc(NC(=O)Nc4c(F)cc(F)cc4F)cc3F)c3c2C(=O)NC3)[nH]1` gave a Kd of 0.024 µM (Tyrosine-protein kinase Lyn (LYN, Homo sapiens, UniProt P07948); binding, KINOMEscan competition binding).
With `Nc1ccn([C@@H]2O[C@H](COP(=O)(O)OP(=O)(O)O)[C@@H](O)[C@H]2O)c(=O)n1` the Kd was 4.1 ± 0.1 µM (Ribonuclease pancreatic (RNASE1, Bos taurus, UniProt P61823); binding, native mass spectrometry; solution; single-point method, added: protein 0 to 0.5 µM).
`O=C(OCC1COC(Cn2ccnc2)(c2ccc(Cl)cc2Cl)O1)c1ccccc1` (stereo not drawn) gave a Kd of 2.6 µM (7-alpha-hydroxycholest-4-en-3-one 12-alpha-hydroxylase; binding; 20 min, pH 7.4).
`CC(C)c1c(-c2cc(F)cc3[nH]ccc23)[nH]c(C(=O)O)c1-c1c(Cl)ccc2[nH]ccc12` gave a Kd of 1.7 to 2.8 µM (BMI1/RNF2; isothermal titration calorimetry).
`OC[C@@H]1CO[C@](Cn2ccnc2)(c2ccc(Cl)cc2Cl)O1` (relative stereo) gave a Kd of 147 µM (7-alpha-hydroxycholest-4-en-3-one 12-alpha-hydroxylase; binding; 20 min, pH 7.4).
`Nc1ccccc1NC(=O)c1ccc(CNC(=O)OCc2cccnc2)cc1` gave a Kd of > 30.2 µM (ALDH2; inhibitor, competition pulldown; SW620 and MV4-11 lysate; 1 h).
`C=CC(=O)N1CCN(c2nc(OC[C@@H]3CCCN3C)nc3c(F)c(-c4nc(N)cc(C)c4C(F)(F)F)c(Cl)cc23)[C@@H](C)C1` gave a Kd of 0.897 ± 0.024 µM (GTPase KRas, GDP-bound (KRAS, Homo sapiens, UniProt P01116, A146T); SPR).
The Kd of `c1ccc(-c2ccc(OCCn3ccnc3)cc2)cc1` is reported as 19.9 µM (7-alpha-hydroxycholest-4-en-3-one 12-alpha-hydroxylase; binding; 20 min, pH 7.4).
The Kd of `CCN(CC)c1ccc2cc(C(=O)NCCNC(=O)c3ccc(-c4cc(-c5ccc(C#N)cc5)nc(-c5ccco5)c4)cc3)c(=O)oc2c1` is reported as 0.05 ± 0.013 µM (Myc proto-oncogene protein, with MAX (MYC, Homo sapiens, UniProt P01106); binding, surface plasmon resonance).
For `O=C(CCCCCCC(=O)Nc1ccc([C@H]2O[C@@H](CSc3nc(-c4ccccc4)c(-c4ccccc4)o3)C[C@@H](c3ccc(CO)cc3)O2)cc1)NO`, the Kd was > 30.2 µM (ALDH2; inhibitor, competition pulldown; SW620 and MV4-11 lysate; 1 h).
The Kd of `Cc1ccnc([18F])c1-c1cccc(N2C[C@H](N3CCN(C(=O)c4nccs4)CC3)CC2=O)c1` is reported as 0.00125 µM (Monoglyceride lipase (Macaca mulatta, UniProt H9ESL3); PET Scatchard analysis; rhesus monkey, cerebellum).
With `Cc1ccc(-c2nsc(N)n2)o1` the IC50 was > 125 µM (Histone acetyltransferase RTT109 with Vps75; enzyme activity, inhibitor, HTS, CPM-based, dose response).
`CCC(=O)N1CCC(C(=O)NCC(=O)N2CCN(c3nc(-c4cnc(N)nc4C(F)F)nc(N4CCOCC4)n3)CC2)CC1` gave a Kd of 0.00013 µM (Phosphatidylinositol 4,5-bisphosphate 3-kinase catalytic subunit alpha isoform (PIK3CA, Homo sapiens, UniProt P42336)).
For `O=S1(=O)C=C(Sc2ccc(Cl)cc2)c2ccccc21`, the IC50 was > 125 µM (Histone acetyltransferase RTT109 with Vps75; enzyme activity, inhibitor, HTS, CPM-based, dose response).
`O=C(CCCCCN1C(=O)c2cccc3cccc(c23)C1=O)NO` gave a Kd of 0.342 µM (ALDH2; inhibitor, competition pulldown; SW620 and MV4-11 lysate; 1 h).
The labelling of `Cc1ccc2[nH]c3c(c2c1)CCCC3N(C)C(=O)CCl` (stereo not drawn) is reported as 12.7% (UCHL1; covalent, intact protein LC-MS; 12.5 µM).
